# Published values gathered from unrelated publications.
# Every numbered part comes from another study and shows a few of its results, in no order. Substitutions count along the parent as printed.

# Study 1
# Target: RING finger protein unkempt homolog, zinc fingers 1-6, GST-SBP tag (UNK, Homo sapiens, UniProt Q9C0B0, residues 30-357)
# UniProt Q9C0B0, sequence (30-357, looked up): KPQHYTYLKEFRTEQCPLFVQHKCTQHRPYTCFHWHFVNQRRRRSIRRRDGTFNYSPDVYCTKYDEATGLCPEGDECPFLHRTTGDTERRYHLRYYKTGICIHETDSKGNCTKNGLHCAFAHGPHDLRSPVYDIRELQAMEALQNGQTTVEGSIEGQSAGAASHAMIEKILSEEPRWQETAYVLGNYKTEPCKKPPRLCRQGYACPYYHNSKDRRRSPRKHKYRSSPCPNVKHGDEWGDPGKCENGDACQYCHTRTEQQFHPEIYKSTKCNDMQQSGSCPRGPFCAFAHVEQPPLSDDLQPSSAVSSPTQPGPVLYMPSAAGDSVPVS
# Method: RNA Bind-n-Seq
# Form: RNA
# Medium: in vitro
# Tested at: not given
# Setting: RNA with constant flanks, ends assumed
# Relative to: input RNA pool
# Direction: higher = stronger binding
Strand,bound/input enrichment
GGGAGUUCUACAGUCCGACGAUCGUUCCCCUGUUGCUAAAUAAUGUGAAAGGGGAGCCCCCGGAGGACUCGUUAUCUGCCGAUCACUUCCAAACACAAACUGAGCCAGUGGACUUGUCAAUAAACAAAGCCAGGACGUCCCCUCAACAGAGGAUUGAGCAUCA,0.179 ratio
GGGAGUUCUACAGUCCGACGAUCGGGAAGAAAUUCGGCAGUGAAUGAAGAUUCCUCUGCAUUUUAGCAUUGCUUUUUCUACUGCCGUUGGCUUUUGAAUGAGGAUGACAAUGGAAGAGAUGAAGAAUGAAGCUGAGACCACUUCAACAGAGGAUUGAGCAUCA,0.334 ratio
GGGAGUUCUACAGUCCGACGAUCUAAUUUGGCUGCAAUUGCAUGAAAUCCCAAUGGUGUAGACCAGUGGCGAUGGAUCCCGGAGUUUACCAACUGAGACAUUUUUCCAUUUCUUUCUUGUCGUCUUUGCUGGGAACCGAAAACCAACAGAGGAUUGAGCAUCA,0.264 ratio
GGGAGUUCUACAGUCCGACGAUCAAUUCAUAAUCACGCUAAUUGUAAUCUGGAGACGUGUAACAUUGUGUAGCCUUUUGUAUAAACCGACAGAUAGAAAUGGUCCGAUUAGUUUCCUUUUUAAUAUGCUUAAAAUAAGCAGGUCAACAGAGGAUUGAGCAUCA,4.73 ratio
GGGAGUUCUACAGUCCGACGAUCAAACACCCUUUGUAUUCCAAAAUAGGGUCUCAAAACAUUUUGUAAUUUUCAUUUAAAUUGUCCGGAGGCUUGGAGCUAUUAGUUAAUCUAUCUUCCAAUACUGUUUAAUAUAGCACUGAACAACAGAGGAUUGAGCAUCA,2.05 ratio
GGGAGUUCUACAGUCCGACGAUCUGCCUCUCAUUCAAUCCCUACAGCGAGUUCAUUCUGGCAACUGGCUCUGCAGAUAAGACUGCCGCUUUAUGGGACCUGCGUAAUCUGAAACUAAAACUCCACACCUUUGAAUCGCAUAAGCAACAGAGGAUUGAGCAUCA,0.214 ratio
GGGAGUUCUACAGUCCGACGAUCCCUGAGCUAAAAUACCCAAAAGGAGCUGGGAGAGUUGCGUUCUCUAAUCAACAGAGUUACACCGCUGCUAUCAGUGCCCGCUUUGUUCAGCUGCAGCAUGGAGAGAUAGAUAAACGGGUGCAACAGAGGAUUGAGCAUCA,0.198 ratio
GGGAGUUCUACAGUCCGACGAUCUACAUGGGCUCACAGAAGCAAUUUAAAAUUACCAAACUCUCACCAGCAAUGGGUUGUAAAUUCCGAUUAUCAGCCAAAAAUGACUAUGGUGUAAGUGAUUUUAGUGAAGAGGUCCUGUACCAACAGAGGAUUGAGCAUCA,0.168 ratio
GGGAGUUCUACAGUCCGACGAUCGUUAUCUCCAACAAAGCCGCAGUAGCUGGGUUAGAUAAAGCGGAAAGAGCUGGUAUUCCCACCCGAGUAAUUAAUCAUAAACUGUAUAAAAAUCGUGUAGAAUUUGACAGUGCAAUUGACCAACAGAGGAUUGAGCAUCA,0.329 ratio
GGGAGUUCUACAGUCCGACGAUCGAAAUGUUAGCACACAGAGCAGUGCUAGCUUGCUGCAGUCCCUAUUUAUUUGAAAUCUUUAACCGUGAUAGUGAUCCUCAUGGAAUUUCUCACGUUAAAUUUGAUGAUCUCAAUCCAGAACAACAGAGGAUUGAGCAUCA,0.385 ratio
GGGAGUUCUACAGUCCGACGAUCGCCUUGGUCCUAGCACCCACUCGAGAAUUGGCUCAGCAGAUACAGAAGGUGGUCAUGGCACCCGGAGACUACAUGGGCGCCUCCUGUCACGCCUGUAUCGGGGGCACCAACGUGCGUGCUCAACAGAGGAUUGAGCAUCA,0.129 ratio

# Study 2
# Target: Transcriptional repressor CTCF (CTCF, Homo sapiens, UniProt P49711, residues 1-727, full length assumed)
# Method: protein-binding microarray
# Form: double-stranded DNA, one strand shown
# Medium: in vitro
# Tested at: not given
# Setting: k-mer, scored over probes, only values ≥0.25
# Direction: higher = stronger binding
# Construct (chain): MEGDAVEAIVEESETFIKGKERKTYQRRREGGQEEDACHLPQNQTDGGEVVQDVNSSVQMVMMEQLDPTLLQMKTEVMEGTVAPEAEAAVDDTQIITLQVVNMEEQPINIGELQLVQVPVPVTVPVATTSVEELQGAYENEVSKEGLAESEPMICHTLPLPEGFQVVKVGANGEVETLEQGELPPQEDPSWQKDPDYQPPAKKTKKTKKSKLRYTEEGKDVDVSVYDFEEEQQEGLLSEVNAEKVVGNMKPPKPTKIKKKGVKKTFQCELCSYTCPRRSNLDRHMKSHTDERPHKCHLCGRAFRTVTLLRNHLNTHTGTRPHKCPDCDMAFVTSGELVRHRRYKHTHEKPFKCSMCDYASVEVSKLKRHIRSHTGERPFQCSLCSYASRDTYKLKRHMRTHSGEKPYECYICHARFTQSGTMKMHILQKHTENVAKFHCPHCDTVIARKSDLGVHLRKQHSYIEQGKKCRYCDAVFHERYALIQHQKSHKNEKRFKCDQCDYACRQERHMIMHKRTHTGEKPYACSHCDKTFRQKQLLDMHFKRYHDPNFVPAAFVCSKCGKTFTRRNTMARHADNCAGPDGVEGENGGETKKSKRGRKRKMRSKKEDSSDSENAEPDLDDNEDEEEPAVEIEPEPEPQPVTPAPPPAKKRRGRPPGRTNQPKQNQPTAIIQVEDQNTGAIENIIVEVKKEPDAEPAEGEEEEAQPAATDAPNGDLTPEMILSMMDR
Strand,E-score
ATTAAAAA,0.299
TTGCAAAA,0.252
CATATACA,0.356
GCTATACA,0.28
ATAATGGA,0.3
ATTTCTGC,0.262
ACATATAA,0.378
AATAACCT,0.265
AATTATGT,0.319
CATAACAA,0.307
ATCGCCAC,0.251
TACATGTA,0.338
ACATGTAA,0.318
GTATAAAA,0.3
CGCGCCGC,0.372
CTTATATA,0.331
TAAGTATA,0.278
ACATAATG,0.265
CATACTTC,0.25
ACAAAATG,0.283
ATGTTATA,0.368
ATGTATAC,0.289
ATAAAACA,0.28
AGAATATA,0.281
CGCCCCCA,0.375

# Study 3
# Target: CCNB2, cyclin fold, Cln2 fusion (human)
# Method: yeast growth competition, sequencing
# Medium: yeast
# Setting: weak parent motif
# Relative to: not given
# Direction: higher = stronger binding
# Starting sequence: WEE2 docking peptide (human); KELRQKLNFSYCE; partner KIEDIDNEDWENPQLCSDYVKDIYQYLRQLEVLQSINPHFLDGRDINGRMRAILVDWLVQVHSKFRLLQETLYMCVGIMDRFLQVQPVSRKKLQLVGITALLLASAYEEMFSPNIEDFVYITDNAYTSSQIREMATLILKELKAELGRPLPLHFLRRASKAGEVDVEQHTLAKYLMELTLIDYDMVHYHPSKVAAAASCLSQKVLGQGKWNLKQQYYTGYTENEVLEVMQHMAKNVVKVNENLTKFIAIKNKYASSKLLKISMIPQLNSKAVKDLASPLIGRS
Variant,normalised enrichment score
AELRQKLNFSYCE [K1A],0.533
KELRQKLNFSYAE [C12A],0.44
KELRQKANFSYCE [L7A],0.265
KELRQKLNFSYCA [E13A],0.582
KELRQKLNASYCE [F9A],0.149
KALRQKLNFSYCE [E2A],0.705
KELRQKLNFAYCE [S10A],0.509

# Study 4
# Target: Histone acetyltransferase KAT6A, winged helix 1, GST fusion (KAT6A, Homo sapiens, UniProt Q92794, residues 1-85)
# Method: protein binding microarray
# Form: double-stranded DNA, one strand shown
# Medium: in vitro
# Tested at: not given
# Setting: 8-mer, flanks averaged, mean of 2 arrays, mostly near background
# Relative to: not given
# Direction: higher = stronger binding
# Target sequence (chain): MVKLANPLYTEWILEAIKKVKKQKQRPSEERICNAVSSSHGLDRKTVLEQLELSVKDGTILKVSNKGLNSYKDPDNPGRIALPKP
Strand,E-score
CGCCGGAA,0.335
GCGCAAAA,0.178
CGTGAGAG,0.00822
GAGGACAA,-0.121
CATCACAA,-0.151
ACTTCACT,-0.189
AATCTAGC,-0.032
GATCATCA,-0.152
AATGATGG,-0.0634
CTGCATCA,-0.232
CACTTGGA,-0.24
GAACCGCC,0.343
ATCTAAGC,-0.0488
ATTGTTTA,-0.25
ACTGTTAA,0.0551
CATAGAGA,-0.158
CGTAACGA,0.117
CAAGTATG,-0.114
GACTGACA,-0.107

# Study 5
# Target: ABI1, truncated, D143A, DHFR fusion (Arabidopsis thaliana)
# Method: DHFR PCA, deep sequencing
# Medium: yeast
# Setting: methotrexate growth selection, single substitutions
# Together with: (+)-ABA 1.4 µM
# Relative to: wild-type fitted maximum
# Direction: higher = stronger binding
# Starting sequence: PYL1, truncated, DHFR fusion (Arabidopsis thaliana); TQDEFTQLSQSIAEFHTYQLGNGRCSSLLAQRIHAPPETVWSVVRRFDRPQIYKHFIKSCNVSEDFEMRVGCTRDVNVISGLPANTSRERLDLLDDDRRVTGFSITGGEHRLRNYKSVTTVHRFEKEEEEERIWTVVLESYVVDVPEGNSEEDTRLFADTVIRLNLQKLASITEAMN
Variant,relative binding score [%]
I12M,18.3
E139Q,69.9
T39G,3.66
E174M,8.69
V62R,-4.37
T17A,11.6
N177K,51.6
E64I,25.7
I57V,48.6
Q167D,21.3
L166T,2.22
G148N,0.156
V70T,18.6
G108C,0.81
S42I,-0.94
P146V,11.6
E89T,-6.76

# Study 6
# Target: Ras GTPase-activating protein-binding protein 1, RRM domain (G3BP1, Homo sapiens, UniProt Q13283)
# UniProt Q13283, sequence (whole entry, looked up): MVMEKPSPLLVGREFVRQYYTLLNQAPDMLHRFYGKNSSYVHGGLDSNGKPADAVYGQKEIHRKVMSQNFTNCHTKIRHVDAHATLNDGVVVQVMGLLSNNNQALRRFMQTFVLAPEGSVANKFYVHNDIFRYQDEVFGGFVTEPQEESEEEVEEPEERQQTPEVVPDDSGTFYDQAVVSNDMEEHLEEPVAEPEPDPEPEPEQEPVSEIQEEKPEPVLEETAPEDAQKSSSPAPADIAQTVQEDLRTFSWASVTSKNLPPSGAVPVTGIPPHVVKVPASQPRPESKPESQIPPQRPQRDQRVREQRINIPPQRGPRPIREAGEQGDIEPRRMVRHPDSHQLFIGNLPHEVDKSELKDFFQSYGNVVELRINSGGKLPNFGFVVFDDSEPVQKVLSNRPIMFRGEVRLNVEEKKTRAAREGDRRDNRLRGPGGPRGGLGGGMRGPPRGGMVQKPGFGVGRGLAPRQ
# Method: RNA Bind-n-Seq
# Form: RNA
# Medium: in vitro
# Tested at: 1 µM
# Setting: whole 134-nt RNA, ends assumed
# Together with: 150 mM KCl
# Relative to: input library
# Direction: higher = stronger binding
Strand,log2 enrichment
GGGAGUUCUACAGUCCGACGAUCUCAAGUCCUGUGCUACACAUCGUAUGUACCGAAUCGGGGUUGGGGUUGGUUGGGAAAGUAUUAUGUUACGCCGUUCGGAUCUGCACUUCCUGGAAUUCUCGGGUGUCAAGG,-0.124
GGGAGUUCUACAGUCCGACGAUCUAACUUUAGAGGAGGAUCUGAUGGAUAUGGCAGUGAACGUGGAUUUGGGGAUGGCUAUAAUGGGUAUGGAGGAGGACCUGGAGGUGGCAAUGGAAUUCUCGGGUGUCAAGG,-0.415
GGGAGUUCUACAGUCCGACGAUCCAAGUCCUGUGCUACACAUCGUAUGUACCGAAUCGGGGAAAGGGGUGGGGAGGGGAAAGUAUUAUGUUACGCCGUUCGGAUCUGCACUUCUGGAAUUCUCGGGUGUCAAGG,0.988
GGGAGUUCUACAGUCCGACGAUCUCAAGUCCUGUGCUACACAUCGUAUGUACCGAAUCGGGUGGGUUUGGGAAAGGGAAAGUAUUAUGUUACGCCGUUCGGAUCUGCACUUCCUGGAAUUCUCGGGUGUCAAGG,0.697
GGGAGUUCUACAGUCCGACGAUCCCUGUGCUACACAUCGUAUGUACCGAAUCGGGGAAAGGGGUUUUUGGGGAAAAAAAGGGGAAAGUAUUAUGUUACGCCGUUCGGAUCUGCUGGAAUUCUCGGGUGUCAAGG,0.827
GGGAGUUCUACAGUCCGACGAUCGUCCUGUGCUACACAUCGUAUGUACCGAAUCGGGGAAAAAGGAAAAAGGAAAAAGGGGAAAGUAUUAUGUUACGCCGUUCGGAUCUGCACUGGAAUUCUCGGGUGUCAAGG,0.0447
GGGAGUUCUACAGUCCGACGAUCAAGUCCUGUGCUACACAUCGUAUGUACCGAAUCGGGGUUUUGGUUUUGGGUUUUGGAAAGUAUUAUGUUACGCCGUUCGGAUCUGCACUUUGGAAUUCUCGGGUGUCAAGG,-0.298
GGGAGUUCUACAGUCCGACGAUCUAACUUUAGAGGAGGAUCUGAUGGAUAUGGCAGUGGACGUGGAUUUAGGGAUGGCUAUAAUGGGUAUGGAGGAGGACCUGGAGGUGGCAAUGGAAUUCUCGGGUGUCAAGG,-0.752
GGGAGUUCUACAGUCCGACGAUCAAGUCCUGUGCUACACAUCGUAUGUACCGAAUCGGUUUUUGGGUUUUUGGUUUUUGGAAAGUAUUAUGUUACGCCGUUCGGAUCUGCACUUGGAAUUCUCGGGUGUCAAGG,-0.122
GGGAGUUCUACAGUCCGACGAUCAGUCCUGUGCUACACAUCGUAUGUACCGAAUCGGGGUUUUGGGGUUUUGGGGUUUUGGAAAGUAUUAUGUUACGCCGUUCGGAUCUGCACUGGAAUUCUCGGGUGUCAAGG,-0.226
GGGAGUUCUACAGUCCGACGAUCCAAGUCCUGUGCUACACAUCGUAUGUACCGAAUCGGGUUUUUGGGUGGGUUUGGGAAAGUAUUAUGUUACGCCGUUCGGAUCUGCACUUCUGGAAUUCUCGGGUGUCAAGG,0.528
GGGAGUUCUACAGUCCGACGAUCCACAGACAACACGCACCCACACAGACACAGAGGGAAGCGGUUGGGAUGGGGACAGGGUGCACAGCAGGGCGGGGUAGGACCCCAGCCCCUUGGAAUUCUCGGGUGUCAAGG,-0.137
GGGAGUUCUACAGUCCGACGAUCCAAGUCCUGUGCUACACAUCGUAUGUACCGAAUCGGAAAAAAAGGAAAAAGGAGGAAAGUAUUAUGUUACGCCGUUCGGAUCUGCACUUCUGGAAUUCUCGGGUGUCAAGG,-0.122
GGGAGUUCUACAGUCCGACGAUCCUCAAGUCCUGUGCUACACAUCGUAUGUACCGAAUCGGAAAGGUGGUUUUUGGAAAGUAUUAUGUUACGCCGUUCGGAUCUGCACUUCCAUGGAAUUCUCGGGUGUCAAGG,-0.198
